Results collected from several papers.
“And” joins repeats or separate records; there may be more than shown. ± marks the error that the study gave.
lasR: Transcriptional activator protein LasR (lasR, Pseudomonas aeruginosa, UniProt P25084)
Orco: Orco (Drosophila melanogaster, UniProt Q9VNB5)
Oprm1: Mu-type opioid receptor (Oprm1, Mus musculus, UniProt P42866)
blaOXA-33: Beta-lactamase (blaOXA-33, Acinetobacter baumannii, UniProt Q8RLA6)
cyp121: Mycocyclosin synthase (cyp121, Mycobacterium tuberculosis, UniProt P9WPP7)
HDAC8: Histone deacetylase 8 (HDAC8, Homo sapiens, UniProt Q9BY41)
MAPK8: Mitogen-activated protein kinase 8 (MAPK8, Homo sapiens, UniProt P45983)

Chains of the proteins cited; added tags and fusions are not shown. Residues count along the entry.
UniProt P25084, whole entry: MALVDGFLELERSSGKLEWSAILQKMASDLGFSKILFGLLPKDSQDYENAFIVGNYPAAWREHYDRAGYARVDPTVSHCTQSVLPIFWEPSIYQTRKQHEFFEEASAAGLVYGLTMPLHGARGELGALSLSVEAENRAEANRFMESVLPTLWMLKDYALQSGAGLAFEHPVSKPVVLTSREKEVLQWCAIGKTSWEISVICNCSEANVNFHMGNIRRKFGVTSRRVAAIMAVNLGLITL
UniProt P25084, 1-173 limits assumed: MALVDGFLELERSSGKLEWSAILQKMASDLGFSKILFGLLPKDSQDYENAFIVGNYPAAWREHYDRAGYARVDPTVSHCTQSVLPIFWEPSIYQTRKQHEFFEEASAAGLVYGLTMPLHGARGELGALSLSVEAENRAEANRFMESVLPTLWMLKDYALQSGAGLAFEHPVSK
UniProt Q9VNB5, whole entry: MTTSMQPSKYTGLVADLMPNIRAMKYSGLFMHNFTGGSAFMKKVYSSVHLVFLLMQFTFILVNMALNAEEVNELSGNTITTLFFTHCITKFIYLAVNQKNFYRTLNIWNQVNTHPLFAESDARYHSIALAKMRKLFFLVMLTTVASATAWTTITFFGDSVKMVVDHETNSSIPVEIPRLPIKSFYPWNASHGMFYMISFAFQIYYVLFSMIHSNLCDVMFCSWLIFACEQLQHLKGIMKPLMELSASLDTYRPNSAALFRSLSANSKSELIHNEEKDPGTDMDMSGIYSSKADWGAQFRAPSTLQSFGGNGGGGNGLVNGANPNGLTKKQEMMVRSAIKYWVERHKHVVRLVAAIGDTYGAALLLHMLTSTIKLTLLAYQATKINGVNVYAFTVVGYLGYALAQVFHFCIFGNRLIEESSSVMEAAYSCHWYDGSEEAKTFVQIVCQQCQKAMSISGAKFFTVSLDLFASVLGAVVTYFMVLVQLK
UniProt Q8RLA6, 21-275 limits assumed: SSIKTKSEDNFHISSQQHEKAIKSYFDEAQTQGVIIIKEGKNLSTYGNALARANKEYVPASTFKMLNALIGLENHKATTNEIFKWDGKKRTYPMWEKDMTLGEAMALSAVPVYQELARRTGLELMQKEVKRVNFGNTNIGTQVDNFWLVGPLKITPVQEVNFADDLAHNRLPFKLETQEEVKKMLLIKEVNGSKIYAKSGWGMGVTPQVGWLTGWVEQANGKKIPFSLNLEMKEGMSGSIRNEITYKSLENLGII
UniProt P45983, 1-384 isoform 3: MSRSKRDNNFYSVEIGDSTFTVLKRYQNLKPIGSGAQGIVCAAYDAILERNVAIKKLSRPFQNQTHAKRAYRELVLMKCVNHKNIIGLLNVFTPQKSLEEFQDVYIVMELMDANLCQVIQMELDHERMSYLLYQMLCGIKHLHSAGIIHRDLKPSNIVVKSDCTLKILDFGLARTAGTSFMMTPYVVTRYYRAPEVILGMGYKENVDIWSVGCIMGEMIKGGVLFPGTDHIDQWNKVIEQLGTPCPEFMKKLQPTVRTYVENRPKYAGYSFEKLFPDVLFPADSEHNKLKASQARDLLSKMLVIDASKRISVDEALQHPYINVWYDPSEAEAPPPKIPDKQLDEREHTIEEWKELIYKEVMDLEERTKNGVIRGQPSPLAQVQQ
UniProt P21554, whole entry: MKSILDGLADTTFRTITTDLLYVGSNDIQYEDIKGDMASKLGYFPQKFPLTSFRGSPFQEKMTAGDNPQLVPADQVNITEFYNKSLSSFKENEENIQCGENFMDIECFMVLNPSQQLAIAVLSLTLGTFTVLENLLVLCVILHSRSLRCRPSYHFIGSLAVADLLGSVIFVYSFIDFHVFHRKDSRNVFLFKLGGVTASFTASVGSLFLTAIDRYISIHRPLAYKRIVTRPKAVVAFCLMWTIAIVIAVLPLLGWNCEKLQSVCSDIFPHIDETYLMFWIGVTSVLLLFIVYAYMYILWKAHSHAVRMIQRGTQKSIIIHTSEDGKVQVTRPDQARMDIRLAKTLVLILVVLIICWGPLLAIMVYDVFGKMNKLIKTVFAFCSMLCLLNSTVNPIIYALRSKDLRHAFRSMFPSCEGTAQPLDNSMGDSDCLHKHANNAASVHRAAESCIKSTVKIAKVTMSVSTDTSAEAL
UniProt Q9Y3Z3, whole entry: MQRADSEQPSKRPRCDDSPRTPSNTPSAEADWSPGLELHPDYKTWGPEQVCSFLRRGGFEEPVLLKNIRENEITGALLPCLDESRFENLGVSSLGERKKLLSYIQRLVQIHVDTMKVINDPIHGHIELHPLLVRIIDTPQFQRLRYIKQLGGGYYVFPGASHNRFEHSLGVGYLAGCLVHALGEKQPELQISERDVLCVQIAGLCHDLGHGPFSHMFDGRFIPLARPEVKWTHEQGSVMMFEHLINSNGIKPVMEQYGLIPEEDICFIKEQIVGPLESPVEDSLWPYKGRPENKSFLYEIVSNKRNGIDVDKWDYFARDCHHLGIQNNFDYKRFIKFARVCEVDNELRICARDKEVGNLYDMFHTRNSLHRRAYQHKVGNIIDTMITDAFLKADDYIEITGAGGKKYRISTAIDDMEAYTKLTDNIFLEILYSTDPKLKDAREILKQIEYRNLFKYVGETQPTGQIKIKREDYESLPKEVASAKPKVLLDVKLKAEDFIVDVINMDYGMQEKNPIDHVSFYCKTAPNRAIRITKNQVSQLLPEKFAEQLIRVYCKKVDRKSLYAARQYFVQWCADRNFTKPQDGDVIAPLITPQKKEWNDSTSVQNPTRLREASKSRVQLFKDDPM
UniProt Q9M9V8, whole entry: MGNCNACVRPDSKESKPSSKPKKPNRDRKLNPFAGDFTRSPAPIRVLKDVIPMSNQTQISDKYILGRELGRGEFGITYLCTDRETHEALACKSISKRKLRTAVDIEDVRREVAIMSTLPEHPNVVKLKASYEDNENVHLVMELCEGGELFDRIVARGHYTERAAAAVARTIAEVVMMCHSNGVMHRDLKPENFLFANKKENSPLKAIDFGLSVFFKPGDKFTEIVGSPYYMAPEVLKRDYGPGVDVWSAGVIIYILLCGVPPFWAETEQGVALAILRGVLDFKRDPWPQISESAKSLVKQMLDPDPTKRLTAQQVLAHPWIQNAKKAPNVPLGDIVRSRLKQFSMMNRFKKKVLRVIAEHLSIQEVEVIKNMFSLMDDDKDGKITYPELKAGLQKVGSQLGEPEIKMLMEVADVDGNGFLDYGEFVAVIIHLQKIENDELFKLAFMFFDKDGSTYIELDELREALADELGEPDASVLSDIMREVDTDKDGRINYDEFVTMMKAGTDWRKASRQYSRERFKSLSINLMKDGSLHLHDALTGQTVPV
UniProt P17706, whole entry: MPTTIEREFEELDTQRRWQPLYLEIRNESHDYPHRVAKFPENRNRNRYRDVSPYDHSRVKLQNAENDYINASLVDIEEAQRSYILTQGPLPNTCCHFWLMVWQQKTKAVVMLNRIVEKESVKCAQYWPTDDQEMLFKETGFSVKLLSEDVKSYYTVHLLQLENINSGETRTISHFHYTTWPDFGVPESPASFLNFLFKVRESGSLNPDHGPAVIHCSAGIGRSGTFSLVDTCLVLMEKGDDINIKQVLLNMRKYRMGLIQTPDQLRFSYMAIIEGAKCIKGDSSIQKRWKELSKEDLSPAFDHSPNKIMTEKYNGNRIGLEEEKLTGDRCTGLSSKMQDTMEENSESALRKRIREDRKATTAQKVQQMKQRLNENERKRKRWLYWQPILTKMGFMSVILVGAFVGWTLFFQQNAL
UniProt C7C422, 36-270 M154L/A233V limits assumed: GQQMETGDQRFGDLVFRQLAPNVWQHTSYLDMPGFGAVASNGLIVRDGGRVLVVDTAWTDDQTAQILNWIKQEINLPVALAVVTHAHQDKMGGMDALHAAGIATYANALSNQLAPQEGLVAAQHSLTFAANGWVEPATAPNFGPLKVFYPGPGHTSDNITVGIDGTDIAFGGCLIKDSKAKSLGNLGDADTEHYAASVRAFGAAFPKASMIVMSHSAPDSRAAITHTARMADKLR
UniProt P31652, whole entry: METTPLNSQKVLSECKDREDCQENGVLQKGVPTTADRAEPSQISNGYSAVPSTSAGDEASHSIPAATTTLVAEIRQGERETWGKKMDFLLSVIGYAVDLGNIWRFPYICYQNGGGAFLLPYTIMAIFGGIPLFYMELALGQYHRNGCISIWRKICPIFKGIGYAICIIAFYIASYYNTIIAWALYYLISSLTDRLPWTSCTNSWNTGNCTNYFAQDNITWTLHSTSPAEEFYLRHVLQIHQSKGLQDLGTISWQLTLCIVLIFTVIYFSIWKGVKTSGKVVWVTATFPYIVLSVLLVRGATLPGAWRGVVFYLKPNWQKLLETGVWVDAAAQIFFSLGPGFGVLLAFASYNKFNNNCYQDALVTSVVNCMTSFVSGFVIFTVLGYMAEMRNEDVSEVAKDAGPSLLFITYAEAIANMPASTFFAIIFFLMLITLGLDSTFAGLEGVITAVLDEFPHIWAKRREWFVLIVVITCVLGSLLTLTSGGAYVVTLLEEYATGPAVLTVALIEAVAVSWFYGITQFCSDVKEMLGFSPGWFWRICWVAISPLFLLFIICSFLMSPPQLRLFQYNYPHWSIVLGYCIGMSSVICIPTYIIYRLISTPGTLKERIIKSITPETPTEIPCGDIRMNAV
UniProt Q07812, whole entry: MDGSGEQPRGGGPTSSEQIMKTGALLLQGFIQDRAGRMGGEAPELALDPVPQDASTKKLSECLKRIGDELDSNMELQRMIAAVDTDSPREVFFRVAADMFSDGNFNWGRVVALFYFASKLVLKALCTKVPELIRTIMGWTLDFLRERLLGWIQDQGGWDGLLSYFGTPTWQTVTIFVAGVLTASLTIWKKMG
UniProt P42260, 32-908 limits assumed: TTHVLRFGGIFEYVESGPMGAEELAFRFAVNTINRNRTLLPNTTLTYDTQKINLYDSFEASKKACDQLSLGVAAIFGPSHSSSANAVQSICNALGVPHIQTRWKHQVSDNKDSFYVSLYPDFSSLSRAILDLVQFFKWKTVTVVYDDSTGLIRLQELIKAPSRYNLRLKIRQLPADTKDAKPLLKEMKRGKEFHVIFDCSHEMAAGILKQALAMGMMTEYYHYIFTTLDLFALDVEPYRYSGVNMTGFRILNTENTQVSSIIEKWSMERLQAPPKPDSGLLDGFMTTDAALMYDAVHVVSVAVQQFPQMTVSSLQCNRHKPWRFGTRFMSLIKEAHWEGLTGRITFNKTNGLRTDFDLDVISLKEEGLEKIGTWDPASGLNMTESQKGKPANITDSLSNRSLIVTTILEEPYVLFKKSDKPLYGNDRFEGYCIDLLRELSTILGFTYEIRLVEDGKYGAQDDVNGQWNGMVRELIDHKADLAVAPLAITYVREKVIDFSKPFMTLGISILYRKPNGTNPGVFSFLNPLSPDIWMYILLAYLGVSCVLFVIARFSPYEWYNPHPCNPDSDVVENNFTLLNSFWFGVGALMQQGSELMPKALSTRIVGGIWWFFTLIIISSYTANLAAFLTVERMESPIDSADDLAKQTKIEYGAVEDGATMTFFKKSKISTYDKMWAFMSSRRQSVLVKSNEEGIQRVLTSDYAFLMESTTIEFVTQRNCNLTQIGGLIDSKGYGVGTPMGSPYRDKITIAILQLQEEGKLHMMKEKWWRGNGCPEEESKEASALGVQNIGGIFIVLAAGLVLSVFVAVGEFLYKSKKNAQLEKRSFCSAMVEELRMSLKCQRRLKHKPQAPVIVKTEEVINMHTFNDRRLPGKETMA
UniProt P43681, 29-627 limits assumed: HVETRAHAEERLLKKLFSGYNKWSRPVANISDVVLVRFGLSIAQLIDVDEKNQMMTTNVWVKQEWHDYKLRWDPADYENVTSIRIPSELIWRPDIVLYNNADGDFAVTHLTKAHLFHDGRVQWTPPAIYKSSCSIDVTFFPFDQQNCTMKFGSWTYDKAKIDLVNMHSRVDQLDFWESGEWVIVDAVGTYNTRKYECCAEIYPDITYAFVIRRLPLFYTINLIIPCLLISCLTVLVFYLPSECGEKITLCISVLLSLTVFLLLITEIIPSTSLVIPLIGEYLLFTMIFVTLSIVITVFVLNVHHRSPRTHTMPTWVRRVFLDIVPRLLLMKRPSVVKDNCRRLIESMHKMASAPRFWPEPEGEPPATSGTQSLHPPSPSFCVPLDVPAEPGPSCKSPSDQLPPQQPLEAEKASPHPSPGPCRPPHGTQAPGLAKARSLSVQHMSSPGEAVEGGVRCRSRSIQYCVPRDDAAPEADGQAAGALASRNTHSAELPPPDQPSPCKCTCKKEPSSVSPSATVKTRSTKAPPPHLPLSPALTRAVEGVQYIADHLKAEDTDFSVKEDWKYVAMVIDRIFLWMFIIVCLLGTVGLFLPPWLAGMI
UniProt P01106, whole entry: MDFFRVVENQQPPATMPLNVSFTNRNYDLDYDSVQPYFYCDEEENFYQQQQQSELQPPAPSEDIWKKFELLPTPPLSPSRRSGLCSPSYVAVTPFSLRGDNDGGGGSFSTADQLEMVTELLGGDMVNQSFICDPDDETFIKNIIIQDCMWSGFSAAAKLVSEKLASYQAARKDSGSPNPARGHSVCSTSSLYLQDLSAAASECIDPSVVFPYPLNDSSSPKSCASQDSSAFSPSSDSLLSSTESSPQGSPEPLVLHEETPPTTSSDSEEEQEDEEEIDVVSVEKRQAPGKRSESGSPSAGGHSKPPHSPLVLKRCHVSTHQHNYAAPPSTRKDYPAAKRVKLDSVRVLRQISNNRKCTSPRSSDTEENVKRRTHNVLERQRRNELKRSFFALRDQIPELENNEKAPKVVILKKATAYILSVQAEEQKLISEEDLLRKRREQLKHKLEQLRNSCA

O=C(CC1CCCC1)NC1CCN(c2ncnc3c2nc(-c2ccccc2Cl)n3-c2ccc(Cl)cc2)CC1
Ke (Cannabinoid receptor 1 (CNR1, Homo sapiens, UniProt P21554); calcium mobilization, antagonist, FLIPR; CHO-K1 with Gαq16; with: CP55940): 3 nM

Nc1nc2c(ncn2[C@H]2C[C@H](O)[C@@H](COP(=O)(O)OCCCNC(=O)c3cccc(-c4cccc(Br)c4)c3)O2)c(=O)[nH]1
delta Tm (Deoxynucleoside triphosphate triphosphohydrolase SAMHD1 (SAMHD1, Homo sapiens, UniProt Q9Y3Z3); differential scanning fluorimetry; 50 µM, 3 µM apo protein): 6.1 °C

O=C(Oc1c(Br)cc(Br)cc1CNC(=O)c1ccccc1[N+](=O)[O-])c1ccccc1
melting temperature (lasR; thermal stability, differential scanning fluorimetry): ~64 °C and 63.5 °C

CC(C)C[C@H](NC(=O)[C@@H]1CCCN1)C(=O)N[C@@H](C)C(=O)N[C@@H](CCCNC(=N)N)C(=O)N[C@H](C(=O)N[C@@H](CC(C)C)C(=O)N[C@@H](CO)C(=O)N[C@H](C(=O)N[C@@H](C)C(=O)NCC(=O)N[C@@H](CC(C)C)C(=O)N1CCC[C@H]1C(=O)NCC(=O)N[C@@H](CCCCN)C(=O)N[C@@H](CCCCN)C(=O)O)C(C)C)[C@@H](C)O
Km (Calcium-dependent protein kinase 10 (CPK10, Arabidopsis thaliana, UniProt Q9M9V8); peptide phosphorylation, substrate, filter-based kinase; 12 min, room temperature, with: 50 µM ATP): 244 µM

CC(=O)N[C@H](C(=O)N[C@@H](Cc1ccccc1)C(=O)N[C@@H](CC(=O)O)C(=O)N[C@@H](CCC(N)=O)C(=O)N[C@@H](Cc1cc(=O)oc2cc(OP(=O)(O)O)ccc12)C(=O)N[C@@H](Cc1c[nH]cn1)C(=O)N[C@@H](CCC(=O)O)C(=O)N[C@@H](CO)C(=O)N1CCC[C@H]1C(N)=O)C(C)C
kcat (Tyrosine-protein phosphatase non-receptor type 2 (PTPN2, Homo sapiens, UniProt P17706); peptide hydrolysis, substrate): 11.5 ± 0.5 s⁻¹

COC(=O)[C@@H](CS)N1C(=O)c2ccc(N(C)C)cc2C1=O
fluorescence increase (Metallo-beta-lactamase type 2 (blaNDM-1, Klebsiella pneumoniae, UniProt C7C422, A233V/M154L); probe; 10 µM, NDM-15 variant, probe:enzyme 1:3, with: ZnSO4 10 µM; relative to: probe alone): 17 fold

C=CCn1c(SCC(=O)Nc2ccc(C(C)C)cc2)nnc1-c1ccncc1
efficacy (Orco; calcium mobilization, agonist; HEK293 expressing Drosophila Orco; relative to: VUAA1): 111%

COc1ccc(CN[C@@H]2CO[C@H](C(c3ccccc3)c3ccccc3)C[C@H]2O)cc1
inhibition (Alpha-2C adrenergic receptor (ADRA2C, Homo sapiens, UniProt P18825); radioligand binding; 10 µM, with: [3H]clonidine): 32.9%

C=CCN1CC[C@]23c4c5ccc(O)c4O[C@H]2[C@H](NC(=O)c2ccc(N=[N+]=[N-])c([125I])c2)CC[C@@]3(O)[C@H]1C5
fast dissociation half-life (Oprm1; binding; CHO cell membranes; 0.1 nM, 25 °C): 4.6 min

Nc1cc(S(=O)(=O)O)cc2cc(S(=O)(=O)O)cc(O)c12
ligand efficiency (blaOXA-33; enzyme activity, inhibitor): 0.26

C[C@@H]1CN(C)CCN1c1nc(-c2ccc(F)cc2)cs1
Vmax (Sodium-dependent serotonin transporter (Slc6a4, Rattus norvegicus, UniProt P31652); [3H]5-HT uptake; HeLa transfected with Slc6a4; 0.15 µM): 1.1 ± 0.2 pmol/min/well

COCOc1c(Br)cc(Br)cc1CNC(=O)c1ccccc1[N+](=O)[O-]
maximum efficacy (lasR; reporter gene, agonist; Escherichia coli JLD271 lasI-lacZ reporter; relative to: OdDHL): 90%

O=C(O)c1ccc(-c2cccc(C(=O)O)c2)cc1
ligand efficiency (blaOXA-33; enzyme activity, inhibitor): 0.3

CC(C)[C@H](NC(=O)[C@H](CCC(N)=O)NC(=O)[C@H](CCCNC(=N)N)NC(=O)[C@H](CCCNC(=N)N)NC(=O)[C@H](CO)NC(=O)[C@H](CCCNC(=N)N)NC(=O)[C@H](CCCCN)NC(=O)[C@H](CCCNC(=N)N)NC(=O)c1ccccc1N)C(=O)N[C@@H](CC(N)=O)C(=O)N[C@H](C(=O)N[C@@H](CCC(N)=O)C(=O)NCCNc1ccc([N+](=O)[O-])cc1[N+](=O)[O-])[C@@H](C)O
Km (Furin (FURIN, Homo sapiens, UniProt P09958); substrate; pH 7): 0.2 µM

CCCc1ccc(NC(=O)CSc2nnc(-c3cccnc3)n2CC)cc1
efficacy (Orco; calcium mobilization, agonist; HEK293 expressing Drosophila Orco; relative to: VUAA1): 57%

CS(=O)(=O)CCCn1c(Cn2c(=O)n(C3CC3)c3ccncc32)nc2cc(Br)ccc21
entropy term (−TΔS) (Fusion glycoprotein F0, prefusion DS-Cav1 (Human respiratory syncytial virus A, UniProt P03420, I379V/M447V/S155C/S190F/S290C/V207L); isothermal titration calorimetry; respiratory syncytial virus A2, PBS with 1% DMSO; 25 °C): 8.9 ± 0.42 kcal/mol

COc1cc2c(cc1OC)C(=O)C(CC1CCN(Cc3cc(C=Cc4ccc(C=Cc5ccc(N(C)C)cc5)cc4)cc(OC)c3O)CC1)C2 (centres unmarked)
fluorescence turn-on (Amyloid-beta precursor protein, Aβ42 fibrils (APP, Homo sapiens, UniProt P05067); fluorescence upon binding, item: emission at 470 nm; relative to: probe without protein): ~4 fold

COc1ccccc1C(=O)Oc1c(Br)cc(Br)cc1CNC(=O)c1ccccc1[N+](=O)[O-]
maximum efficacy (lasR; reporter gene, agonist; Escherichia coli JLD271 lasI-lacZ reporter; relative to: OdDHL): 94%

CCC(c1ccc(-c2ccsc2)cc1)n1ccnc1 (centres unmarked)
Kd (cyp121; binding): 18.3 ± 1.7 µM

CC(=O)NCCCC[C@H](NC(=O)CNC(=O)[C@H](CCCNC(=N)N)NC(C)=O)C(N)=O
kcat (HDAC8; deacetylation, substrate; 25 °C, with: 150 nM enzyme): 0.09 ± 0.05 s⁻¹

CC1(C)SCN(C(=O)[C@@H](O)[C@H](Cc2ccccc2)NC(=O)COc2ccccc2)[C@@H]1C(=O)N[C@H]1c2ccccc2C[C@H]1O
ΔH of binding (Gag-Pol polyprotein, protease (gag-pol, Human immunodeficiency virus type 1 group M subtype B, UniProt P04585, L521I/L551I/Q495K); isothermal titration calorimetry; concentration not given, pH 5.0, 25 °C): -4.5 kcal/mol

O=C(NCc1cc(Br)cc(Br)c1OC(=O)c1ccccc1Cl)c1ccccc1Cl
melting temperature (lasR; thermal stability, differential scanning fluorimetry): 64.3 °C

CN1CCN(CC(O)CN2c3ccccc3Sc3ccccc32)CC1 (centres unmarked)
chemical shift perturbation (Apoptosis regulator BAX (BAX, Homo sapiens, UniProt Q07812); ligand-observed 1H NMR; 100 µM, 10 µM BAX; relative to: compound without BAX): 1.3 Hz

CC(=O)NCCCC[C@H](NC(=O)[C@H](CCCCNC(C)=O)NC(=O)[C@H](Cc1c[nH]cn1)NC(=O)[C@H](CCCNC(=N)N)NC(C)=O)C(N)=O
kcat (Protein deacetylase HDAC6 (HDAC6, Homo sapiens, UniProt Q9UBN7); deacetylation, substrate; 25 °C, with: 10 to 50 nM enzyme): 0.23 ± 0.03 s⁻¹

O=C(Oc1c(Br)cc(Br)cc1CNC(=O)c1ccccc1[N+](=O)[O-])c1ccc(Br)cc1
maximum efficacy (lasR; reporter gene, agonist; Escherichia coli JLD271 lasI-lacZ reporter; relative to: OdDHL): 91%

C#CCN1CC[C@]23c4c5ccc(O)c4O[C@H]2[C@H](NC(=O)c2ccc(N=[N+]=[N-])c([125I])c2)CC[C@@]3(O)[C@H]1C5
slowly dissociating fraction (Oprm1; binding; CHO cell membranes; 0 °C): 87%

O=S(=O)(O)c1ccc2cc(S(=O)(=O)O)ccc2c1
ligand efficiency (blaOXA-33; enzyme activity, inhibitor): 0.29

COc1ccc(OCC2c3cc(OC(C)C)ccc3CCN2C(=O)c2cccc(Cl)c2)cc1 (racemic)
effect on receptor activity (Glutamate receptor ionotropic, kainate 2, concanavalin A-treated (Grik2, Rattus norvegicus, UniProt P42260); kainate-activated current; HEK cells; concentration not given): no effect

O=C(OCC1CCCN(C(=O)CCc2ccccc2)C1)c1ccccc1-c1ccccc1 (centres unmarked)
potency fold increase (Neuronal acetylcholine receptor; alpha4/beta2 (Homo sapiens, UniProt P17787+P43681); receptor inhibition, negative allosteric modulator; cell-based; relative to: amide over non-carbonyl analog): 2.4

Cc1nc2c[nH]c(/C=C/C=C/c3ccc(N(C)C)cc3)cn-2c1=O
signal increase after PMCA (Alpha-synuclein, CSF-derived seeds (SNCA, Homo sapiens, UniProt P37840); seeded aggregation, PMCA; cerebrospinal fluid; concentration not given, seed 70 fM, with: alpha-synuclein monomer 70 µM; relative to: control): 3956 ± 32 fold

COC(=O)[C@@]1(C)C=C(C(=O)Nc2cc(C(=O)Nc3ccc(Nc4nccc(-c5cccnc5)n4)cc3)ccc2C)C(=O)CC1
remaining activity (MAPK8; kinase activity, inhibitor; 0.02032 µM, unit not given, with: 10 mM GSH; relative to: DMSO): 0.433

O=c1ccn([C@@H]2O[C@H](COP(=O)(O)OP(=O)(O)OP(=O)(O)O)[C@@H](O)[C@]2(F)Br)c(=O)[nH]1
IC50 fold change (Genome polyprotein, NS5B polymerase (Hepatitis C virus genotype 1a, UniProt P27958); polymerase activity; genotype 1a; relative to: genotype 1b): 0.59

Nc1nc2c(ncn2[C@@H]2CC[C@H](OC(C(=O)O)P(=O)(O)O)C2)c(=O)[nH]1 (relative stereo)
alpha value (Gag-Pol polyprotein, reverse transcriptase (gag-pol, Human immunodeficiency virus type 1 group M subtype B, UniProt P04585); mixed inhibitor, mixed model fit; poly rC.dG template/primer, unit not given, with: varying dGTP; 1 noncompetitive, large competitive): 3.92

CCn1c(SCC(=O)Nc2ccc(C(C)C)cc2)nnc1-c1ccncc1
efficacy (Orco; calcium mobilization, agonist; HEK293 expressing Drosophila Orco; relative to: VUAA1): 150%

C#CCCCN1C(=O)[C@@]2(CN2[S@@+]([O-])C(C)(C)C)c2ccccc21 (some centres unmarked)
Tm shift (Myc proto-oncogene protein (MYC, Homo sapiens, UniProt P01106); thermal destabilisation, CETSA; PSN1; 50 µM, 4 h; relative to: vehicle): 6.4 °C

C=CC(c1ccc(-c2ccc3cc(OC)ccc3c2)cc1)n1ccnc1 (single isomer, unassigned)
Kd (cyp121; enantiomer E1): 0.9 µM

CC(=O)NCCCC[C@H](NC(=O)CNC(=O)[C@H](CCCNC(=N)N)NC(C)=O)C(=O)N[C@@H](Cc1c[nH]c2ccccc12)C(N)=O
kcat (HDAC8; deacetylation, substrate; 25 °C, with: 150 nM enzyme): 0.041 ± 0.014 s⁻¹

COC(=O)[C@@]1(C)C=C(C(=O)Nc2ccc(C)c(C(=O)Nc3ccc(Nc4nccc(-c5cccnc5)n4)cc3)c2)C(=O)CC1
remaining activity (MAPK8; kinase activity, inhibitor; 2.788e-05 µM, unit not given, with: 10 mM GSH; relative to: DMSO): 0.963
